Experimental data collected from several papers.
Each numbered part is a random draw from the data of one study; scales do not carry over between parts.

Series 1 — observed: ligand displacement; concentration: 10 µM
Target: Alpha-2B adrenergic receptor (ADRA2B, Homo sapiens, UniProt P18089)
UniProt P18089, sequence (whole entry, looked up): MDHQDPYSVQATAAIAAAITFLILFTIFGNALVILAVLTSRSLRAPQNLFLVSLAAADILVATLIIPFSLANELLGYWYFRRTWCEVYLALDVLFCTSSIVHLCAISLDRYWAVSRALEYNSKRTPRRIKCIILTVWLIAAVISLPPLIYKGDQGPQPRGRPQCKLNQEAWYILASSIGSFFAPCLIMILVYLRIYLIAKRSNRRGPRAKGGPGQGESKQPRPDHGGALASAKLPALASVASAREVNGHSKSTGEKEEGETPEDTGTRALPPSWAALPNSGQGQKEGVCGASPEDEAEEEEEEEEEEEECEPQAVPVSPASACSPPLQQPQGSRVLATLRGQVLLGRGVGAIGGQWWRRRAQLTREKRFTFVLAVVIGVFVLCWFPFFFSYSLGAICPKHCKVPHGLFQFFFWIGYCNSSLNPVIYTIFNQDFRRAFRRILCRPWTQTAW
| Compound | inhibition [%] |
| --- | --- |
| CNC(=O)Nc1ccc2c(c1)CC[C@]21OC(=O)N(CC(=O)N(Cc2ccc(F)cc2)[C@@H](C)C(F)(F)F)C1=O | 26.5 |
| Nc1nc(NCc2ccccc2)nc(-c2ccccc2CO)n1 | 43.9 |
| CC[C@H](CC(=O)O)n1c(=O)c2ncccc2n(Cc2cn(C)c3cc(C)cc(C)c23)c1=O | 0.56 |
| O=C(NS(=O)(=O)c1ccc(NCC2CCOCC2)c([N+](=O)[O-])c1)c1ccc(N2CCN(Cc3ccc(C(F)(F)F)cc3-c3ccc(Cl)cc3)CC2)cc1Oc1cnc2[nH]ccc2c1 | 15.6 |
| Cc1ccccc1Oc1cc(-n2c(=O)cc(C(F)(F)F)[nH]c2=O)c2ccccc2c1Cl | -8.63 |
| COCCOc1nc(-c2ccc(Cl)nc2)nc2c1CN(C(=O)c1ncn3ccccc13)CC2 | -2.32 |
| Cc1ncc(-c2cc(Cl)ccc2F)cc1-n1c(=O)n(CC(N)=O)c2ccccc21 | 17.3 |
| CCc1ccccc1C(=O)Nc1n[nH]c2c(C)c(F)c(C3C(C#N)=C(C)N(C)C(C)=C3C#N)cc12 | 10.6 |
| CN1CCN(C(=O)C(C)(C)c2ccc(C(=O)Nc3cn4cc(-c5cc(C(C)(C)C)cc(C(C)(C)C)c5)ccc4n3)cc2)CC1 | 77.6 |
| Nc1nc(NCc2ccccc2)nc(-c2cccc(CO)c2)n1 | 21.8 |
| CN(C)C(=O)c1sc2nc(N3CCC(S(C)(=O)=O)CC3)cc(C(F)(F)F)c2c1N | 3.36 |
| COc1cc(C(=O)O)ncc1C#Cc1ccccc1NS(=O)(=O)c1cccc2c(N(C)C)ccnc12 | 8.34 |
| COc1cc(-c2cn(C3CCc4c(F)cccc4N(CC(F)(F)F)C3=O)nn2)ccc1-n1cnc(C)c1 (stereo not shown) | 31.1 |
| Cn1nc(C(=O)NCc2ccc(C(=O)O)cc2)cc1-c1ccc2[nH]ccc2c1 | 6 |
| O=C(NCCCC1CCCCC1)c1ccc(CNC(=O)c2cnn(-c3ccccc3)c2C(F)(F)F)cc1 | 1.13 |

Series 2 — observed: enzyme activity; mode: inhibitor; concentration: 0.5 µM; baseline: control
Target: Tyrosine-protein kinase Srms (SRMS, Homo sapiens, UniProt Q9H3Y6)
UniProt Q9H3Y6, sequence (whole entry, looked up): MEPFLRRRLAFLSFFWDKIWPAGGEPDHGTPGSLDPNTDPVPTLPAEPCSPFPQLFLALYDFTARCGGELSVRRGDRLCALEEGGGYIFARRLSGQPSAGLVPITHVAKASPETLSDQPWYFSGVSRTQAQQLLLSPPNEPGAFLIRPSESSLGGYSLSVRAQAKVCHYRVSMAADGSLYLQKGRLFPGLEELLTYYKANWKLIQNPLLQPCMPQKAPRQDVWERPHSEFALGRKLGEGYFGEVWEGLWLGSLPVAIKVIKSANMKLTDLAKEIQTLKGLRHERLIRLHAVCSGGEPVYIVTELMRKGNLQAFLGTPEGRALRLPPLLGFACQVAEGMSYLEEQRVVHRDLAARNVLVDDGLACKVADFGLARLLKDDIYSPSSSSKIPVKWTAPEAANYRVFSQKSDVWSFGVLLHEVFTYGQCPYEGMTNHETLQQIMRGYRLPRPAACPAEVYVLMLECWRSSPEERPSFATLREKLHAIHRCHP
| SMILES | remaining activity [%] |
| --- | --- |
| O=C(NC(NC(=S)Nc1ccc(F)c([N+](=O)[O-])c1)C(Cl)(Cl)Cl)C(c1ccccc1)c1ccccc1 (stereo not shown) | 96.9 |
| COc1cc2c(cc1OC)-c1[nH]nc(Nc3cccc(F)c3)c1C2 | 99.9 |
| O=c1cc(-c2cccc3c2Sc2ccccc2S3)oc(N2CCOCC2)c1 | 93.8 |
| O=C(Nc1cccc(Nc2nccc(Nc3cccc(C(F)(F)F)c3)n2)c1)C1CC1 | 95.5 |
| Cc1nc2cc3nc(-c4cccs4)cnc3cc2n1C | 95.4 |
| Cn1nc2c3c(cccc31)C(=O)c1ccccc1-2 | 104 |
| CN([C@@H](Cc1ccc(OS(=O)(=O)c2cccc3cnccc23)cc1)C(=O)N1CCN(c2ccccc2)CC1)S(=O)(=O)c1cccc2cnccc12 | 103 |
| Cc1cc2ncc(-c3ccccc3)nc2cc1C | 93.5 |
| Nc1cccc(-c2cc3c(Oc4cccc(O)c4)ncnc3[nH]2)c1 | 94.4 |
| N#Cc1c(NC(=O)c2cccc3ccccc23)sc2c1CCCC2 | 106 |
| O=C1C(Cl)=C(N2C(=O)CCC2=O)C(=O)c2ccccc21 | 108 |
| c1ccc(-c2cnc(Nc3ccc(OCCN4CCCC4)cc3)s2)cc1 | 96.5 |
| O=C1c2ccccc2-c2n[nH]c3cccc1c23 | 99.1 |
| CCN(CC)C(=O)c1ccc(Nc2nc(OCC3CCCCC3)c3[nH]cnc3n2)cc1 | 84.7 |
| CCN(CC)CCNC(=O)c1c(C)[nH]c(/C=C2\C(=O)Nc3ccc(F)cc32)c1C | 99.6 |
| CCN(CC)CCNC(=O)c1c(C)[nH]c(/C=C2\C(=O)Nc3ccc(Cl)cc32)c1C | 102 |
| C[C@@H]1CCN(C(=O)CC#N)C[C@@H]1N(C)c1ncnc2[nH]ccc12 | 95.8 |
| CN(C)C[C@H]1CCn2c(c(C3=C(c4cn(C)c5ccccc45)C(=O)NC3=O)c3ccccc32)C1 | 109 |
| Ic1cccc(CSc2nnc(-c3ccncc3)o2)c1 | 93.4 |
| CCOc1nc(NC(=O)Cc2cc(OC)ccc2OC)cc(N)c1C#N | 108 |
| Cc1cn(-c2cc(NC(=O)c3ccc(C)c(Nc4nccc(-c5cccnc5)n4)c3)cc(C(F)(F)F)c2)cn1 | 118 |
| N#C/C(=C\c1ccc(O)c(O)c1)C(=O)NCc1ccccc1 | 104 |

Series 3 — SMILES: C=CCc1ccc(O)c(-c2cc(CC=C)ccc2O)c1
ANO1 del476-501/E659A: Anoctamin-1 (ANO1, Homo sapiens, UniProt Q5XXA6, del476-501/E659A)
UniProt Q5XXA6, sequence (whole entry, unmodified, looked up): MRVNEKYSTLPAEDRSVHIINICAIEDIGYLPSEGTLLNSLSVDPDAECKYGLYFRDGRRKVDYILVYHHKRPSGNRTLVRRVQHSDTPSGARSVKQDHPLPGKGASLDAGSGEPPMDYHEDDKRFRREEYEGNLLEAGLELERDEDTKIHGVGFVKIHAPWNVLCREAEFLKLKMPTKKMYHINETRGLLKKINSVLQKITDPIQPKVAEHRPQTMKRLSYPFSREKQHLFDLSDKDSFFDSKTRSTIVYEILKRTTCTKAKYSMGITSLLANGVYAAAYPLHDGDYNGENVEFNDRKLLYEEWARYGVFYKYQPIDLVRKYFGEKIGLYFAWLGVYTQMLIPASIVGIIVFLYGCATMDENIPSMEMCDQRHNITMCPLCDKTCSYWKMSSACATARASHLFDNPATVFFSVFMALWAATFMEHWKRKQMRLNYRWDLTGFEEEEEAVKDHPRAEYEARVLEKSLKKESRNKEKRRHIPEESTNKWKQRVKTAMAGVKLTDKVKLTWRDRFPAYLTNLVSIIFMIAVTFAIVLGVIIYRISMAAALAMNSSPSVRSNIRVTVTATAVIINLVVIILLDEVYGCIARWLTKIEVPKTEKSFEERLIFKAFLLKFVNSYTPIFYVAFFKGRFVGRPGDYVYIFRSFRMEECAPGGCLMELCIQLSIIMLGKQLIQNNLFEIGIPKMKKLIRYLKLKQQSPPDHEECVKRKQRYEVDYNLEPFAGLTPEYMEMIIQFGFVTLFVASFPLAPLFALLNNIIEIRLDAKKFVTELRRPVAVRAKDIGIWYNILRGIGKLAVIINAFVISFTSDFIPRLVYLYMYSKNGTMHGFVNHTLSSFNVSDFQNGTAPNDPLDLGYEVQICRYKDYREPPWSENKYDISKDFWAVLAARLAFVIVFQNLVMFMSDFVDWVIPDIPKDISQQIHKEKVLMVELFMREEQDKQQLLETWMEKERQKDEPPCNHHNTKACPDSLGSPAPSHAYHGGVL
ANO1 del476-501/E649A: Anoctamin-1 (ANO1, Homo sapiens, UniProt Q5XXA6, del476-501/E649A)
ANO1: Anoctamin-1 (ANO1, Homo sapiens, UniProt Q5XXA6)
ANO1 del476-501/M544A: Anoctamin-1 (ANO1, Homo sapiens, UniProt Q5XXA6, del476-501/M544A)
| target | assay | conditions | how to read | normalized current |
| --- | --- | --- | --- | --- |
| ANO1 del476-501/E659A | chloride current, inside-out patch clamp | 30 µM, membrane voltage 100 mV | – | 0.753 |
| Anoctamin-1 (ANO1, Homo sapiens, UniProt Q5XXA6, del476-501) | chloride current, whole-cell voltage clamp | 1 µM, membrane voltage 0 mV, added: 4 µM Ca2+ (saturating) | – | -0.0021 |
| Anoctamin-1 (ANO1, Homo sapiens, UniProt Q5XXA6, del476-501/K629A) | chloride current, inside-out patch clamp | 30 µM, membrane voltage -20 mV | – | -0.117 |
| Anoctamin-1 (ANO1, Homo sapiens, UniProt Q5XXA6, del476-501/E659A/K629A) | chloride current, inside-out patch clamp | 30 µM, membrane voltage 120 mV | – | 1 |
| Anoctamin-1 (ANO1, Homo sapiens, UniProt Q5XXA6, del476-501/R541A) | chloride current, inhibitor, inside-out patch clamp | 30 µM, R515A mutant at -80 mV | – | -0.441 |
| ANO1 del476-501/E649A | chloride current, inhibitor, inside-out patch clamp | 30 µM, E623A mutant at -100 mV | – | -0.596 |
| ANO1 | chloride current, inside-out patch clamp | 30 µM, membrane voltage 100 mV | – | 0.846 |
| ANO1 del476-501/E649A | ion current, inside-out patch clamp | 30 µM, E623A mutant at 80 mV | – | 0.594 |
| ANO1 del476-501/M544A | chloride current, inhibitor, whole-cell voltage clamp | 30 µM, M518A mutant | baseline: untreated | 0.779 |
| ANO1 del476-501/M544A | chloride current, inhibitor, whole-cell voltage clamp | 100 µM, M518A mutant | baseline: untreated | 0.499 |
| ANO1 del476-501/E649A | chloride current, inhibitor, inside-out patch clamp | 30 µM, E623A mutant at -80 mV | – | -0.501 |
| ANO1 del476-501/E659A | chloride current, inside-out patch clamp | 30 µM, membrane voltage 40 mV | – | 0.299 |
| ANO1 | chloride current, inhibitor, inside-out patch clamp | 30 µM, wild type at -80 mV | – | 90.9 |

Series 4 — cell line: A-375; concentration: 100 µM; time: 18 h
| SMILES | viability |
| --- | --- |
| COc1ncnc(NS(=O)(=O)c2ccc(N)cc2)c1OC | 78.4% |
| Nc1ccc(/N=N/c2ccccc2)c(N)n1 | 68.6% |
| O=C1CCC(N2C(=O)c3ccccc3C2=O)C(=O)N1 (stereo not shown) | 102% |
| CN(C)c1nc(N(C)C)nc(N(C)C)n1 | 89.4% |
| CCOC(=O)c1c(C)n(C)c2ccc(O)cc12 | 69.1% |
| CC(C)(Oc1ccc(Cl)cc1)C(=O)O | 114% |
| C#CCN[C@@H]1CCc2ccccc21 | 92.2% |
| Nc1nc(F)nc2c1ncn2[C@@H]1O[C@H](COP(=O)(O)O)[C@@H](O)[C@@H]1O | 93% |
| c1ccc(Cc2nc3ccccc3[nH]2)cc1 | 87.7% |
| O=C(/C=C/C=C/c1ccc2c(c1)OCO2)N1CCCCC1 | 81.9% |
| CNC1CCCN(c2c(F)cc3c(=O)c(C(=O)O)cn(C4CC4)c3c2OC)C1 (stereo not shown) | 95% |
| C[C@]12CC[C@@H]3c4ccc(OC(=O)c5ccccc5)cc4CC[C@H]3[C@@H]1CC[C@@H]2O | 8.38% |
| COc1ccccc1N1CCN(CC(O)COc2cccc3ccccc23)CC1 (stereo not shown) | 12.6% |
| NC(=O)OCC(COC(N)=O)c1ccccc1 | 101% |

Some of these lines once more (series 3):
| target | assay | conditions | how to read | normalized current |
| --- | --- | --- | --- | --- |
| ANO1 del476-501/E649A | chloride current, inhibitor, inside-out patch clamp | 30 µM, E623A mutant at -100 mV | – | -0.596 |
| ANO1 | chloride current, inside-out patch clamp | 30 µM, membrane voltage 100 mV | – | 0.846 |
| ANO1 del476-501/E649A | ion current, inside-out patch clamp | 30 µM, E623A mutant at 80 mV | – | 0.594 |
| ANO1 del476-501/M544A | chloride current, inhibitor, whole-cell voltage clamp | 30 µM, M518A mutant | baseline: untreated | 0.779 |
| ANO1 del476-501/M544A | chloride current, inhibitor, whole-cell voltage clamp | 100 µM, M518A mutant | baseline: untreated | 0.499 |
| ANO1 del476-501/E649A | chloride current, inhibitor, inside-out patch clamp | 30 µM, E623A mutant at -80 mV | – | -0.501 |
| ANO1 del476-501/E659A | chloride current, inside-out patch clamp | 30 µM, membrane voltage 40 mV | – | 0.299 |
